Assay results of several laboratories.
Each numbered part is a random draw from the data of one study; scales do not carry over between parts.
UniProt Q14164, sequence (whole entry, looked up): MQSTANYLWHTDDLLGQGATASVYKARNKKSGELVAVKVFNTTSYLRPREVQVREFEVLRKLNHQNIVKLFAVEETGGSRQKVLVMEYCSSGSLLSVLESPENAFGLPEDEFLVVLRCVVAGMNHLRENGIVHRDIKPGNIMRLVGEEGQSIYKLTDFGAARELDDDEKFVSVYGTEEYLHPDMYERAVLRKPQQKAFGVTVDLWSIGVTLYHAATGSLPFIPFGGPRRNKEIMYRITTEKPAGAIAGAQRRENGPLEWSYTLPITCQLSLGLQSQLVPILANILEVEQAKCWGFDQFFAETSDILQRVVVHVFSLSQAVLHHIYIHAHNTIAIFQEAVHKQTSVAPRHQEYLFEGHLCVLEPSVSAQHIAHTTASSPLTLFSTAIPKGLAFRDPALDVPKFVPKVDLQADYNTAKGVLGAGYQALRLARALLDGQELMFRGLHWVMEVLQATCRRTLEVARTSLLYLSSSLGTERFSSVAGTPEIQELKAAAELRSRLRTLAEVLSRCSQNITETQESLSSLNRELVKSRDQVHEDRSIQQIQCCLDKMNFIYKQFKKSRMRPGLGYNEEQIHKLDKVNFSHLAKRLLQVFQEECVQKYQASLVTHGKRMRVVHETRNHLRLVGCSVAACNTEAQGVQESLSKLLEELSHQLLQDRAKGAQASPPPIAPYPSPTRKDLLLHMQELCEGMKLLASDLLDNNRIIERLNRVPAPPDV
UniProt Q9BZL6, sequence (whole entry, looked up): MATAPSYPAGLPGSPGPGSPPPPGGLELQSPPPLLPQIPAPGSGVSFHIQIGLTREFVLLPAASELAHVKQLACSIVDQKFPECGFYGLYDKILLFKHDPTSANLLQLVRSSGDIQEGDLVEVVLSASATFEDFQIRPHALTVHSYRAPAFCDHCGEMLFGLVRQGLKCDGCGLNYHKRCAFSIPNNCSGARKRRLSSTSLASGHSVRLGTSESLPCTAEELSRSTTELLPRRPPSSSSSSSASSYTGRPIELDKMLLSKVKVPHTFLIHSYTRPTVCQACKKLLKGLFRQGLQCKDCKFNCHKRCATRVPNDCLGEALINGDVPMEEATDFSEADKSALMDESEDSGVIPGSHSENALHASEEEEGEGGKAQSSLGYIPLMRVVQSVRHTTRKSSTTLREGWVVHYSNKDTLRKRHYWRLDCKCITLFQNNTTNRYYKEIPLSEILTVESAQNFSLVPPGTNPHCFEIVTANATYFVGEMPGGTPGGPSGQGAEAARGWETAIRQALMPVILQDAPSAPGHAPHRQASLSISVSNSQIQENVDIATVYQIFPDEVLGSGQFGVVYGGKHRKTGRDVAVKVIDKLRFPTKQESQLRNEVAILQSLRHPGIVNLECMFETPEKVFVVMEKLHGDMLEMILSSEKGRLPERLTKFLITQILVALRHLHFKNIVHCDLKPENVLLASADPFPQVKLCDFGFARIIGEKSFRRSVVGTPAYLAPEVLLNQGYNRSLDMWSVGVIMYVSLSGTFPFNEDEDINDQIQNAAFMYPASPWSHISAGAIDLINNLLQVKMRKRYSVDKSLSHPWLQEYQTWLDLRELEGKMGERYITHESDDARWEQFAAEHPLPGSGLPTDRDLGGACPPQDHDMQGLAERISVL
UniProt P35590, sequence (whole entry, looked up): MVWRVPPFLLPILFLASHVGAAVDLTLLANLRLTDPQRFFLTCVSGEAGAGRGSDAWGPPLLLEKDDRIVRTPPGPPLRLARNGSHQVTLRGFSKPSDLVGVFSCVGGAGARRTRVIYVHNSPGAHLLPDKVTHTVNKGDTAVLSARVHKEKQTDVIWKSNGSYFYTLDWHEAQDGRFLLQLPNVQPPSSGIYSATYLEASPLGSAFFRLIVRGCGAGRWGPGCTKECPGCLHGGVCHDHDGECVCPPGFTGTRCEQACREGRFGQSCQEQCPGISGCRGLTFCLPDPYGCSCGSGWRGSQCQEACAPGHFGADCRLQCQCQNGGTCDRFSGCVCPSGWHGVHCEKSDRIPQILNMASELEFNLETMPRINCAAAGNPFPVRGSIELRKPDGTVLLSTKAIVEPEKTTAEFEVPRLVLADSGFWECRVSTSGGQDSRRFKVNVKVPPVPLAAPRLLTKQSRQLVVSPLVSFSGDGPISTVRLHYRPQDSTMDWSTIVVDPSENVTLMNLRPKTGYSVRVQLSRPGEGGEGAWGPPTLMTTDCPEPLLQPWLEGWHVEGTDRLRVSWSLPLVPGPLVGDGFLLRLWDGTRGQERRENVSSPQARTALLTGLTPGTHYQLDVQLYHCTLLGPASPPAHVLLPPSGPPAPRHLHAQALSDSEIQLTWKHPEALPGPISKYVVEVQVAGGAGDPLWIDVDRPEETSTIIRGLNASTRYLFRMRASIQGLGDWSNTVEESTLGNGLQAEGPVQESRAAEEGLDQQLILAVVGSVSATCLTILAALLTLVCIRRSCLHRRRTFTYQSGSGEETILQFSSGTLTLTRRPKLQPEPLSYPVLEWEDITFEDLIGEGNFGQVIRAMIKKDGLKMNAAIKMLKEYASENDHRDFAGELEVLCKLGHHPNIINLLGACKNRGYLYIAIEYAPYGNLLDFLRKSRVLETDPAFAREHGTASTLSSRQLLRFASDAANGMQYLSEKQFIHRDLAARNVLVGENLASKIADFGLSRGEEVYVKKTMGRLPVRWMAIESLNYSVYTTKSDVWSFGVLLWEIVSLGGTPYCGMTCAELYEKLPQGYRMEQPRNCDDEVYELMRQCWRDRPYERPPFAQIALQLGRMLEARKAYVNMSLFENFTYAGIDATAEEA
UniProt Q9BXA7, sequence (whole entry, looked up): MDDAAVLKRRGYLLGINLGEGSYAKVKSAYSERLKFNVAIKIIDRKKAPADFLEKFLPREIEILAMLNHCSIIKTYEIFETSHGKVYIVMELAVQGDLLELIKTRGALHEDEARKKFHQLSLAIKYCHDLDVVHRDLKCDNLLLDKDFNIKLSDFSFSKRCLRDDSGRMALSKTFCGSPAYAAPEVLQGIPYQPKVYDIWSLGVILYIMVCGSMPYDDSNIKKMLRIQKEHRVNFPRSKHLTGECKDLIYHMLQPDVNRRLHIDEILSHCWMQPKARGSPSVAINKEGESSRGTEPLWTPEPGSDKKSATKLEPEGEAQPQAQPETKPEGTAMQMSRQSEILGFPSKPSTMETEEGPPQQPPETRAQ
UniProt Q8WXR4, sequence (whole entry, looked up): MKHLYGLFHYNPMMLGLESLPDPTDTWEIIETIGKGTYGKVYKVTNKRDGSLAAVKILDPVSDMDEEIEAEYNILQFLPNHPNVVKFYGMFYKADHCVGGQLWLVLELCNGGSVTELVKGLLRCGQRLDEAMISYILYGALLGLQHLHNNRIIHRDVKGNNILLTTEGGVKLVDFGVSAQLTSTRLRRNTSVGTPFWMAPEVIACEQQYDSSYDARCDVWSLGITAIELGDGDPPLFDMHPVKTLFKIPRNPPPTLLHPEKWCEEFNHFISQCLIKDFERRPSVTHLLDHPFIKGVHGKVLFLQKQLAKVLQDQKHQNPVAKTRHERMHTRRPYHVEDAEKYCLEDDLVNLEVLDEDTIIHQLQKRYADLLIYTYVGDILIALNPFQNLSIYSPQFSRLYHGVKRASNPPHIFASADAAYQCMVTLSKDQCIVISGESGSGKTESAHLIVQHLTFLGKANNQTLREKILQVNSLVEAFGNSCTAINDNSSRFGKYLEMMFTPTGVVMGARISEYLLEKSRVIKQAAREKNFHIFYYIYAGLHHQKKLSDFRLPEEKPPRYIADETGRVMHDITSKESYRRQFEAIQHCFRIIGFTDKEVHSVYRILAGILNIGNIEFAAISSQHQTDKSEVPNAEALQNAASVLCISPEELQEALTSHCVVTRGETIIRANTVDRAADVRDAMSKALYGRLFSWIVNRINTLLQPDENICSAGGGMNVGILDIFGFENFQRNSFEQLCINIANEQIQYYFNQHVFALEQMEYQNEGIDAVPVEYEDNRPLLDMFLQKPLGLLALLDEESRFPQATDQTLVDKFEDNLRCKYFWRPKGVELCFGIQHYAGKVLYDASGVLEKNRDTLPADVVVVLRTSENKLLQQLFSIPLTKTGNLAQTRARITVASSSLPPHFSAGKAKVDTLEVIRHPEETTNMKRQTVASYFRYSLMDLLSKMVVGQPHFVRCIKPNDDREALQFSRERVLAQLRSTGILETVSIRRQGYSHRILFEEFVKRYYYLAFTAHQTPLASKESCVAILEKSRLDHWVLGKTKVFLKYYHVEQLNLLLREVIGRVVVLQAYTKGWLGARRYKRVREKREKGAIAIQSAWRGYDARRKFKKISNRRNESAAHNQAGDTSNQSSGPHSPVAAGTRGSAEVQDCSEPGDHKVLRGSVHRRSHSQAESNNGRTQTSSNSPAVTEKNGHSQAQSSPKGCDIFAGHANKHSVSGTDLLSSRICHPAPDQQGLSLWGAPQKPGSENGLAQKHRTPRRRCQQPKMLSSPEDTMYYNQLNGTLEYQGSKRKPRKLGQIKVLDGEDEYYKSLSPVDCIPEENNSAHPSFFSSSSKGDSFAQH
UniProt Q9UIK4, sequence (whole entry, looked up): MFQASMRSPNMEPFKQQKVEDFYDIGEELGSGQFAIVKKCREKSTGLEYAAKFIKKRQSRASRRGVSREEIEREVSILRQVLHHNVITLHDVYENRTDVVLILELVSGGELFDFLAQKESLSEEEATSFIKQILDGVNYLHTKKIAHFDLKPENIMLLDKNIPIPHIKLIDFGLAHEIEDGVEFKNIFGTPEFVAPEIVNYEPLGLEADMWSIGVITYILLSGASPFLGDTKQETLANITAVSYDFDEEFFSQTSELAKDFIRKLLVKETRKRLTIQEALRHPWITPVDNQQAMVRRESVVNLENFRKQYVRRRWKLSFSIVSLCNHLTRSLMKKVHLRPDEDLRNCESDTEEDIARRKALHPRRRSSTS

Sample 1 — method: RNA Bind-n-Seq; molecule type: RNA; sample: in vitro; concentration: 20 nM; setting: 6-mer, flanks averaged, single round; with: 150 mM LiCl; baseline: input library; direction: higher = stronger binding; endpoint: 6-mer enrichment (R)
Target: TAR DNA-binding protein 43, full length, His tag (TARDBP, Homo sapiens, UniProt Q13148, residues 1-414)
AUAAUC: 0.878
AGCAUG: 1
CGCAGC: 0.916
UUACCU: 0.955
ACACAC: 0.886
AGCUUG: 0.93
GCUGAC: 0.902
UAGAGA: 0.946

Sample 2 — observed: enzyme activity; action: inhibitor; concentration: 0.5 µM; baseline: control; endpoint: remaining activity
SMILES: CC[n+]1c(/C=C/N(C)c2ccccc2)n(-c2ccccc2)c2ccc(-c3nc4ccccc4s3)cc21
DAPK1 (Homo sapiens, UniProt P53355): 74.7%
IKBKE (Homo sapiens, UniProt Q14164): 94.7%
MAPK9 (Homo sapiens, UniProt P45984): 94.6%
Cyclin-dependent kinase 4, with cyclin D1 (CDK4, Homo sapiens, UniProt P11802): 107%
DAPK2 (Homo sapiens, UniProt Q9UIK4): 94.3%
GRK3 (Homo sapiens, UniProt P35626): 97.4%

Sample 3 — method: RNAcompete; molecule type: RNA; sample: in vitro; concentration: 20 nM; setting: 7-mer, probes averaged, single round; baseline: mean of 7-mers; direction: higher = stronger binding; endpoint: 7-mer Z-score
Target: PABPC1L2, full length, GST fusion (mouse, UniProt A0ABA7IW68)
Residues (chain): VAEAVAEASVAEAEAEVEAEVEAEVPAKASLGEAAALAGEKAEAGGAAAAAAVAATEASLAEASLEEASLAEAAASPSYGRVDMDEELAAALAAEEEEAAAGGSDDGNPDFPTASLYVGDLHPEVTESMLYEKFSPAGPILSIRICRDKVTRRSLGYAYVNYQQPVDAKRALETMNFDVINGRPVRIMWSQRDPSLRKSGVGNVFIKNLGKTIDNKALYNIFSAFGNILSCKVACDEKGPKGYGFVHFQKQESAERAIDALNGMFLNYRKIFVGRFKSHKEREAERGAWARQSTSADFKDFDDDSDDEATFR
GUAUUUU: -0.342
GGACGGG: 0.336
ACUGCCU: -0.34
GAACAGA: 0.222
CGACACG: -0.0482
AUUUUAC: -0.208
UGUCACG: -0.197
AAGCAAU: 0.218

Sample 4 — observed: cell-free assay; method: competition with immobilised ligand; concentration: 1 µM; endpoint: remaining binding
Structure (SMILES): CC(=O)c1c(NS(C)(=O)=O)c2cc(-c3ccc(Cl)cc3)c(-c3ccc(Cl)cc3Cl)nc2n(C)c1=O
Myosin-IIIb (MYO3B, Homo sapiens, UniProt Q8WXR4): 99%
PRKD2 (Homo sapiens, UniProt Q9BZL6): 88%
NUAK1 (Homo sapiens, UniProt O60285): 86%
TSSK1B (Homo sapiens, UniProt Q9BXA7): 100%
TIE1 (Homo sapiens, UniProt P35590): 100%
